Assay results of several laboratories.
“And” joins repeats or separate records; there may be more than shown. ± marks the error that the study gave.
cya: Calmodulin-sensitive adenylate cyclase (cya, Bacillus anthracis, UniProt P40136)
rep main protease: Replicase polyprotein 1ab, main protease (rep, Severe acute respiratory syndrome coronavirus 2, UniProt P0DTD1)
Spike glycoprotein: Spike glycoprotein (Severe acute respiratory syndrome coronavirus 2, UniProt P0DTC2)

`Cc1nc(N)c2ncn(C3CCN(Cc4ccc(S(=O)(=O)F)cc4)CC3)c2n1` gave a kinact of 0.000467 s⁻¹ (cya).
`N=C(N)c1ccc2cc(OC(=O)c3ccc(N=C(N)N)cc3)ccc2c1` has an inhibition of 0.493% (rep main protease; reporter gene (mKate2), inhibitor; 20 µM).
With `O=C(NCC[C@@H]1c2ccccc2CCN1C(=O)c1ncnc2[nH]ccc12)c1ccc[n+]([O-])c1` the inhibition was 14.1% (rep main protease; enzyme activity, inhibitor; 5 µM).
`COc1ccc(-c2oc3ccccc3c(=O)c2N)cc1N` gave an inhibition of -1.9% (rep main protease; viral replication, Gluc reporter; SARS-CoV-2; 20 µM).
`O=C(/C=C/c1ccc(O)c(O)c1)OC[C@H]1O[C@@H](OCCc2ccc(O)c(O)c2)[C@H](O)[C@@H](O)[C@@H]1O` has a koff of 0.00353 s⁻¹ (Spike glycoprotein; binding, BLI).
With `Cc1ccc2[nH]ncc2c1C(=O)NC[C@H]1Cc2ccccc2CN1C(=O)C[C@H](C)c1ccco1` the inhibition was 11.3% (rep main protease; enzyme activity, inhibitor; 5 µM, mean of runs).
With `CCc1c(C(=O)C(N)=O)c2c(OCC(=O)O)cccc2n1Cc1ccccc1` the remaining activity was 100% and 97.5% (Daboia russelii venom phospholipase A2; enzyme activity, inhibitor; PB population; 0.001 µM, added: NOB substrate; baseline: venom alone).
For `CC[C@H](C)[C@H](NC(=O)[C@@H]1CCCN1C(=O)[C@H](C)NC(=O)[C@@H]1CSSC[C@@H]2NC(=O)[C@H](CC(=O)O)NC(=O)[C@H](CCCNC(=N)N)NC(=O)[C@H](CCC(=O)O)NC(=O)[C@H](CCCNC(=N)N)NC(=O)CNC(=O)[C@H](CC(=O)O)NC(=O)[C@@H]3CSSC[C@H](NC(=O)[C@H](CCC(=O)O)NC(=O)[C@H](CC(C)C)NC(=O)CNC(=O)[C@H](C)NC(=O)[C@H](CSSC[C@H](NC(=O)[C@H](Cc4ccccc4)NC(=O)[C@@H](N)CO)C(=O)N[C@@H](CC(C)C)C(=O)N[C@@H](C(C)C)C(=O)N[C@@H](CCCCN)C(=O)N[C@@H](Cc4c[nH]c5ccccc45)C(=O)N[C@@H](CCCCN)C(=O)N[C@@H](CCC(N)=O)C(=O)N3)NC2=O)C(=O)N[C@@H](Cc2c[nH]c3ccccc23)C(=O)N[C@@H](CCCCN)C(=O)N[C@@H](CCCNC(=N)N)C(=O)N[C@@H](CO)C(=O)NCC(=O)N[C@@H](CC(N)=O)C(=O)N[C@@H](CCCCN)C(=O)N[C@@H](CO)C(=O)N[C@@H](CO)C(=O)N[C@@H](C(C)C)C(=O)N1)C(=O)N[C@H](C(=O)O)[C@@H](C)O`, the rise time was 13 ± 4 ms (ASIC1 (Homo sapiens, UniProt P78348, F352A); outside-out patch clamp; HEK-293T ASIC1a knockout; 1 µM, F352A mutant).
`O=C(/C=C\c1cnccn1)NC[C@@H](NC(=O)c1cn[nH]c(=O)c1)c1ccc2ccccc2c1` has an inhibition of 13.2% (rep main protease; enzyme activity, inhibitor; 5 µM, mean of runs).
For `CC(C)C[C@H](CC(=O)NO)C(=O)N[C@@H](Cc1ccc2ccccc2c1)C(=O)N[C@@H](C)C(=O)NCCN`, the inhibition was 1.65% (rep main protease; viral replication, Gluc reporter; SARS-CoV-2; 20 µM).
With `O=C(c1cc2ccc(O)cc2[nH]1)N1CC2(C1)CN(C(=O)[C@H]1CCc3n[nH]nc3C1)CCO2` the inhibition was 10.8% (rep main protease; enzyme activity, inhibitor; 5 µM, mean of runs).
`Cc1nc(N)c2cnn(C3CCN(C(=O)c4ccc(S(=O)(=O)F)cc4)CC3)c2n1` gave a kinact of 0.0012 s⁻¹ (cya).
The inhibition of `C1=CCC2(CC1)COC(c1ccco1)OC2` (stereo not drawn) is reported as 1.15% (rep main protease; viral replication, Gluc reporter; SARS-CoV-2; 20 µM).
The kon of `O=C1O[C@H]2[C@@H]3OC(=O)c4cc(O)c(O)c(O)c4-c4c(cc(O)c(O)c4O)C(=O)OC[C@H]2O[C@@H](OC(=O)c2cc(O)c(O)c(O)c2)[C@@H]3OC(=O)c2cc(O)c(O)c3c2[C@@H]2C1=CC(=O)[C@](O)(O3)C2(O)O` is reported as 165 M⁻¹ s⁻¹ (Spike glycoprotein; binding, BLI).
With `Cc1ccncc1C(=O)N[C@@H](CNC(=O)C1=NOCC1)c1ccc2ccccc2c1` the inhibition was 11.9% (rep main protease; enzyme activity, inhibitor; 5 µM, mean of runs).
`CC(C)=CCC/C(C)=C/CC/C(C)=C/CC/C(C)=C/CC1=C(C)C(=O)c2ccccc2C1=O` has a koff of 0.000852 s⁻¹ (Spike glycoprotein; binding, BLI).
`NC1=N[C@@](c2cccc(-c3cncnc3)c2)(c2ccnc(C(F)F)c2)c2cccc(F)c21` has an inhibition of 0.646% (rep main protease; reporter gene (Gaussia luciferase), inhibitor; 20 µM).
With `COc1ccc(C[C@@H]2c3cc(Oc4cc(C[C@@H]5c6cc(O)c(OC)cc6CCN5C)ccc4O)c(OC)cc3CCN2C)cc1` the kon was 483 M⁻¹ s⁻¹ (Spike glycoprotein; binding).
`O=c1cc(CO)occ1O` has an inhibition of -0.934% (rep main protease; reporter gene (mKate2), inhibitor; 20 µM).
For `C=C1C[C@@]23CC[C@H]4[C@@](C)(CCC[C@@]4(C)C(=O)O[C@@H]4O[C@H](CO)[C@@H](O)[C@H](O)[C@H]4O)[C@@H]2CC[C@]1(O[C@@H]1O[C@H](CO)[C@@H](O)[C@H](O)[C@H]1O)C3`, the kon was 101000 M⁻¹ s⁻¹ (Spike glycoprotein; binding, BLI).
`O=C(NC[C@@H]1Cc2ccccc2CN1C(=O)c1nnn2ccccc12)c1cccc2[nH]ncc12` gave an inhibition of 7.9% (rep main protease; enzyme activity, inhibitor; 5 µM, run 1).
`CC(C)Cc1ccc([C@H](C)C(=O)O)cc1` has an inhibition of 0.136% (rep main protease; reporter gene (mKate2), inhibitor; 20 µM).
For `CC[C@H](CC[C@@H](C)[C@H]1CC[C@H]2[C@@H]3CC=C4C[C@@H](O[C@@H]5O[C@H](CO)[C@@H](O)[C@H](O)[C@H]5O)CC[C@]4(C)[C@H]3CC[C@]12C)C(C)C`, the kon was 1.94e+06 M⁻¹ s⁻¹ (Spike glycoprotein; binding, BLI).
`O=C(NC[C@H](NC(=O)c1cncc2sccc12)c1ccc2ccccc2c1)c1cncs1` gave an inhibition of 14.4% (rep main protease; enzyme activity, inhibitor; 5 µM, run 1).
With `CC(=O)NO` the inhibition was -0.587% (rep main protease; reporter gene (mKate2), inhibitor; 20 µM).
`O=C(N[C@@H]1CC[C@H]2C[C@@H]1CN2C(=O)c1cccc(-n2cncn2)c1)c1cc2c(=O)[nH]ccn2n1` has an inhibition of 10.8% (rep main protease; enzyme activity, inhibitor; 5 µM, mean of runs).
The Hill slope of `Nc1ncnc2c1ncn2[C@@H]1O[C@H](C[C@@H](N)CC[C@H](N)C(=O)O)[C@@H](O)[C@H]1O` is reported as 1.38 ± 0.05 (Replicase polyprotein 1ab, nsp14 N7-methyltransferase (rep, Severe acute respiratory syndrome coronavirus 2, UniProt P0DTD1); N7-methyltransferase activity, inhibitor, Py-FLINT).
